Experimental data pooled from the literature.
± gives the spread as reported.

Nc1nc2sc(CCCCCCc3ccc(C(=O)N[C@@H](CCC(=O)O)C(=O)O)cc3)cc2c(=O)[nH]1  IC50 (KB and IGROV-1; cell growth): 0.0047 to 0.334 µM
Cc1c(-c2ccc(-c3ccccc3F)cc2)nc2ccc(F)cc2c1C(=O)O  IC50 (MOLM-13; cell growth or viability, MTT; 48 h): 0.1 µM
O=C1C(=Cc2ccccc2)CN(C(=O)C#CC(=O)N2CC(=Cc3ccccc3)C(=O)C(=Cc3ccccc3)C2)CC1=Cc1ccccc1  IC50 (CEM T-lymphocytes; cell proliferation; 3 d): 3.35 ± 1.27 µM
O=c1cc(-c2ccc(O)cc2)oc2cc(O)cc(O)c12  IC50 (U-937; cell growth or viability, ATP luminescence; 24 h): 160 µM
CCCS(=O)(=O)Nc1ccc(F)c(C(=O)c2c[nH]c3ncc(-c4ccc(Cl)cc4)cc23)c1F  IC50 (MEF; cell growth or viability, ATP luminescence; 72 h): 25 µM
CC(C)c1ncccc1OS(=O)(=O)c1ccc(NC(=O)NCCCl)cc1  IC50 (MOLM-13; cell growth or viability, MTT; 48 h): 2.8 µM
O=C(O)Cc1ccccc1Nc1c(Cl)cccc1Cl  IC50 (RAW264.7; reactive oxygen species, inhibitor, fluorescence; LPS-stimulated): 25.4 µM
CCN(CC)CCCC(C)Nc1ccnc2cc(Cl)ccc12 (stereo not shown)  IC50 (KB; cell growth or viability, resazurin; 72 h): 110 µM
COc1ccc(NCSc2nnc(-c3nn(CNc4ccc(OC)cc4)c(=O)c4ccccc34)o2)cc1  IC50 (WI-38; cell growth or viability, MTT; 48 h): 68.6 µM
Cn1c(=O)c(/C=C/c2ccccc2)nc2ccccc21  IC50 (HeLa 229; cell growth or viability, MTT; 72 h): 19.1 µM
COC(=O)c1c(-c2ccc(C)cc2)c2n(c1C(=O)OC)CCn1cccc1-2  IC50 (MDA-MB-231; cell growth or viability, MTT; 48 h): 73.2 µM
O=c1c2ccccc2c(-c2nnc(SCNc3ccc([N+](=O)[O-])cc3)o2)nn1CNc1ccc([N+](=O)[O-])cc1  IC50 (WI-38; MTT; 48 h): ~22 µM
CC#CC(=O)N1CC[C@@H](n2c(=O)n(-c3ccc(Oc4ccccc4)cc3)c3c(N)ncnc32)C1  IC50 (SU-DHL-6; cell growth or viability, CCK-8; 72 h): 17.1 µM
C=CCN(CC=C)C(=S)[S][Sn]([c]1ccccc1)([c]1ccccc1)[c]1ccccc1  IC50 (WIL2-NS; cell growth or viability, MTT): 0.2 µM
COc1cc(OC)c2cc(C(=O)NCc3ccc(Br)cc3)cc(O)c2c1  IC50 (C26, HepG2, MCF7; cytotoxicity, MTT; range over three cell lines): 14.5 to 25.1 µM
CC(C)Oc1ccc(C(=O)Cn2ccnc2)cc1-n1c(CN2CCN(C(=O)COc3ccc(Cl)cc3)CC2)nc2ccccc2c1=O  IC50 (SU-DHL-2; cell viability, CellTiter-Glo; 24 h): < 0.1 µM
CC(C)[C@H](NC(=O)[C@@H]1CCCN1C(=O)[C@H](CCCNC(=N)N)NC(=O)[C@H](CS)NC(=O)[C@H](Cc1c[nH]c2ccccc12)NC(=O)[C@H](CCCNC(=N)N)NC(=O)[C@@H](Cc1ccccc1)NC(=O)[C@H](Cc1c[nH]cn1)NC(=O)[C@H](CCC(=O)O)NC(=O)[C@H](CS)NC(=O)[C@H](CS)NC(=O)[C@H](CCCCN)NC(=O)[C@@H]1CC(=O)N[C@@H](CCCNC(=N)N)C(=O)N[C@@H](C)C(=O)N[C@@H](CC(=O)O)C(=O)N[C@H](Cc2ccc(O)cc2)C(=O)N1)C(N)=O [technetium-99m labelled]  tissue uptake (C57 mice, lung; intravenous, 0.037 MBq, 4 h): 0.46 ± 0.11 %ID/g
N.N.O=C([O-])C1(C(=O)[O-])CCC1.[Pt+2]  IC50 (H1703; cell viability, MTT; 4 h, together with: cimetidine 3 mmol/L): 640 ± 26.9 µM
C[C@H]1[C@@H](O)O[C@@H]2O[C@@]3(C)CC[C@H]4[C@H](C)CC[C@@H]1[C@@]24OO3  IC50 (MCF7/ADR multidrug-resistant; cell growth, MTT; 24 h): 14.8 µM
Cc1ccc(NC(=O)CSc2nnc(-c3ccc(NC(=O)c4cccnc4)cc3)o2)cc1  IC50 (RAW264.7; NO release, inhibitor, Griess; LPS-stimulated): 18.9 µM
CCCCNc1ccc(C(=O)OCCN(CC)CC)c(OC)c1  IC50 (ventricular myocytes, R176Q mouse; Ca2+ spark frequency; 2 h, together with: isoproterenol 100 nM): 0.0372 µM
CC(C)C[C@H](NC(=O)[C@@H](O)[C@H](N)Cc1ccccc1)C(=O)O  IC50 (U-937; aminopeptidase activity; together with: Ala-AMC 50): 2.47 µM
C[C@H](Cn1cnc2c(N)ncnc21)OCP(=O)(O)O  IC50 (HepG2.4D14; cell growth; 96 h): 256 µM
C=C1C[C@H](O)[C@H](Br)C(C)(C)[C@@]12CCC(C)=C(Cl)C2  IC50 (NIH/3T3 eIF4A1 knockdown; cell viability; 5 days): 2.38 µM
O=C(CCOCCOc1c2cccc1Cc1cccc(c1O)Cc1cccc(c1OCCOCCC(=O)Nc1ccc(-n3nc(-c4ccccc4O)nc3-c3ccccc3O)cc1)Cc1cccc(c1O)C2)Nc1ccc(-n2nc(-c3ccccc3O)nc2-c2ccccc2O)cc1  IC50 (HepaRG; cell viability, MTT; 72 h, together with: Fe(III) 20 µM): 125 ± 5 µM
Cc1ccc(C)c(NC(=O)CSc2nnc(-c3ccc(NC(=O)c4cccnc4)cc3)n2N)c1  IC50 (RAW264.7; reactive oxygen species, inhibitor, fluorescence; LPS-stimulated): 44.3 µM
COc1cc(OC)c(OC)cc1/C=C(\C(=O)c1cc(C)[nH]c(=O)c1C(=O)N1CCCCC1)c1cc(OC)c(OC)cc1OC  IC50 (A-375; cell proliferation, MTT; 72 h): > 10 µM
COc1cccc(/C=C/c2ccc(O)cc2)c1  IC50 (HL-60; ROS generation, inhibitor, DCFH-DA; together with: PMA): > 25 µg/mL
[NH2][Pt]12([NH2])([O]C(=O)CC(=O)[O]1)[O]C(=O)CC(=O)[O]2  IC50 (SW480; cell viability, MTT; 96 h): > 200 µM
CC(C)C[C@H]1NC(=O)[C@H](CC(=O)O)NC(=O)CNC(=O)[C@H](CCCNC(=N)N)NC(=O)[C@H](C)NC1=O  IC50 (WM-115; cell adhesion, inhibitor; 1 h, together with: immobilized CagL Q40A mutant): 1.65 µM
O=C1Nc2ccc(Cl)cc2C1n1nc(-c2c(O)c3ccccc3oc2=O)cc1-c1ccc(Cl)cc1 (stereo not shown)  IC50 (A-375; cell growth or viability, SRB; 72 h): 5.43 µM
Nn1c(SCC(=O)Nc2ccc([N+](=O)[O-])cc2)nnc1-c1ccc(NC(=O)c2cccnc2)cc1  IC50 (RAW264.7; NO release, inhibitor, Griess; LPS-stimulated): 1.92 µM
O=C1C(n2nc(-c3c(O)c4ccccc4oc3=O)cc2-c2ccc(Br)cc2)c2cc(Cl)ccc2N1Cc1ccccc1 (stereo not shown)  IC50 (A-375; cell growth or viability, SRB; 72 h): 4.36 µM
Cc1ccc(C#Cc2cccc(-c3nn(-c4nc(C(=O)O)cs4)c(C4CC4C4CC4)c3Cc3ccc(S(N)(=O)=O)c(F)c3)c2)s1 (stereo not shown)  IC50 (MIA PaCa-2; cell growth or viability; 48 h): 5.26 µM
Cc1ccc(C)c(NC(=O)CSc2nnc(-c3ccc(NC(=O)c4cccnc4)cc3)o2)c1  IC50 (RAW264.7; IL-6 release, inhibitor, ELISA; LPS-stimulated): 1.04 µM
CC(C)(O)C(O)Cc1c(O)cc(/C=C/c2ccc(O)cc2)cc1O (stereo not shown)  IC50 (HL-60; reactive oxygen species, inhibitor, fluorescence): 0.4 µg/mL
O=C1C(=Cc2ccccc2)CN(C(=O)c2ccccc2C(=O)N2CC(=Cc3ccccc3)C(=O)C(=Cc3ccccc3)C2)CC1=Cc1ccccc1  IC50 (CEM T-lymphocytes; cell proliferation; 3 d): 1.45 ± 0.85 µM
CCCNC(=O)Nc1ccc(S(=O)(=O)Oc2cnccc2Br)cc1  IC50 (MOLM-13; cell growth or viability, MTT; 48 h): 3.8 µM
CCCCCC(O)C=CCO (stereo not shown)  IC50 (SH-SY5Y; cell growth or viability, SRB; 24 h): 758 µM
CCCCCCNC(=O)n1cc(F)c(=O)[nH]c1=O  IC50 (NIH 3T3; cell viability, MTT; concentration not given): 184 µM
O=c1[nH]c2ccccc2nc1/C=C/c1ccccc1Cl  IC50 (HeLa 229; cell growth or viability, MTT; 72 h): > 50 µM
Nn1c(SCC(=O)Nc2ccc(F)cc2)nnc1-c1ccc(NC(=O)c2cccnc2)cc1  IC50 (RAW264.7; NO release, inhibitor, Griess; LPS-stimulated): 10.1 µM
CCN1C(=O)C(n2nc(-c3c(O)c4ccccc4oc3=O)cc2-c2ccc(Cl)cc2)c2cc(Br)ccc21 (stereo not shown)  IC50 (A-375; cell growth or viability, SRB; 72 h): 5.44 µM
Oc1cccc(CCc2ccccc2)c1  IC50 (HL-60; reactive oxygen species, inhibitor, fluorescence): 0.012 µg/mL
CC(C)(C)OC(=O)NCC(=O)OC1CCC2(C)C(C(O)CC3(C)C2CC(O)C2C(C4(C)CCCC(C)(C)O4)CCC23C)C1(C)C (stereo not shown)  IC50 (Hep3B; HRE reporter gene, inhibitor; 24 h, hypoxia): < 0.3 µM
Cn1c(=O)c(/C=C/c2ccc(F)cc2)nc2ccccc21  IC50 (HeLa 229; cell growth or viability, MTT; 72 h): 43.2 µM
COC(=O)c1ccc(C(=O)N(C)C2CCN(c3nnc(-c4ccnn4C)c4ccccc34)CC2)cc1  IC50 (NIH3T3 Light II; Gli reporter gene; 24 h, together with: SAG 100 nM): inactive
CCCCCCCC/C=C\CCCCCCCC(=O)OC[C@H](COP(=O)([O-])OCC[N+](C)(C)C)OC(=O)Cc1c(C)n(C(=O)c2ccc(Cl)cc2)c2ccc(OC)cc12  IC50 (MCF-10A; cell growth or viability, SRB; 72 h): 102 µM
COC1=C(OC)[C@H](O)[C@H](C/C=C(\C)CC/C=C(\C)CCC=C(C)C)[C@@H](C)C1=O  IC50 (LNCaP; cell growth or viability, MTS; 72 h): 22 µM
CC(C)(C)OC(=O)n1c(-c2ccccc2)cc2ccccc21  viability (RAW264.7; sulforhodamine B; 50 µM, 20 h; baseline: vehicle): 27.6 ± 2.4%
O=C1C(n2nc(-c3c(O)c4ccccc4oc3=O)cc2-c2ccc(Cl)cc2)c2ccccc2N1Cc1ccccc1 (stereo not shown)  IC50 (A-375; cytotoxicity, SRB; 72 h): 4.6 µM
O=c1[nH]cc(F)c(=O)[nH]1  IC50 (ASPC1; cell growth or viability, MTT; 72 h): 52.4 µM
Nc1ccc(/C=C/C(=O)N2CCc3c(oc4c(-c5ccc(F)cc5)cc(-c5ccc(C(=O)N6CC(C(F)F)C6)nn5)cc34)C2)cn1  IC50 (MIA PaCa-2; cell growth or viability, CCK-8; 72 h): 0.39 to 1.08 µM
O=C1Nc2ccc(OC(F)(F)F)cc2C1n1nc(-c2c(O)c3ccccc3oc2=O)cc1-c1ccc(Br)cc1 (stereo not shown)  IC50 (A-375; cell growth or viability, SRB; 72 h): 4.37 µM
CC(=O)c1ccc(NC(=O)CSc2nnc(-c3ccc(NC(=O)c4cccnc4)cc3)o2)cc1  IC50 (RAW264.7; reactive oxygen species, inhibitor, fluorescence; LPS-stimulated): 25.6 µM
O=c1[nH]nc(-c2nnc(S)o2)c2ccccc12  IC50 (WI-38; cell growth or viability, MTT; 48 h): 74.9 µM
c1cncc(-c2cc3ccccc3[nH]2)c1  viability (RAW264.7; sulforhodamine B; 50 µM, 20 h; baseline: vehicle): 107 ± 7%
O=c1[nH]c2ccccc2nc1/C=C/c1ccc(F)cc1  IC50 (HeLa 229; cell growth or viability, MTT; 72 h): > 50 µM
O=C(CSc1nnc(-c2ccc(NC(=O)c3cccnc3)cc2)o1)Nc1ccc([N+](=O)[O-])cc1  IC50 (RAW264.7; reactive oxygen species, inhibitor, fluorescence; LPS-stimulated): 0.03 µM
CCN1C(=O)C(n2nc(-c3c(O)c4ccccc4oc3=O)cc2-c2ccc(Br)cc2)c2ccccc21 (stereo not shown)  IC50 (A-375; cell growth or viability, SRB; 72 h): 68.4 µM
O=c1c(/C=C/c2ccccn2)nc2ccccc2n1Cc1ccccc1  IC50 (HeLa 229; cell growth or viability, MTT; 72 h): > 50 µM

For quick reference, copied from above:
CC(C)c1ncccc1OS(=O)(=O)c1ccc(NC(=O)NCCCl)cc1  IC50 (MOLM-13; cell growth or viability, MTT; 48 h): 2.8 µM
COC(=O)c1ccc(C(=O)N(C)C2CCN(c3nnc(-c4ccnn4C)c4ccccc34)CC2)cc1  IC50 (NIH3T3 Light II; Gli reporter gene; 24 h, together with: SAG 100 nM): inactive
CC(=O)c1ccc(NC(=O)CSc2nnc(-c3ccc(NC(=O)c4cccnc4)cc3)o2)cc1  IC50 (RAW264.7; reactive oxygen species, inhibitor, fluorescence; LPS-stimulated): 25.6 µM
CCCCCCCC/C=C\CCCCCCCC(=O)OC[C@H](COP(=O)([O-])OCC[N+](C)(C)C)OC(=O)Cc1c(C)n(C(=O)c2ccc(Cl)cc2)c2ccc(OC)cc12  IC50 (MCF-10A; cell growth or viability, SRB; 72 h): 102 µM
COC(=O)c1c(-c2ccc(C)cc2)c2n(c1C(=O)OC)CCn1cccc1-2  IC50 (MDA-MB-231; cell growth or viability, MTT; 48 h): 73.2 µM
